Experimental data pooled from the literature.

SMILES	tested on	assay	test system	setting	how to read	quantity	value
NC(=O)c1cnc2[nH]ccc2c1N[C@@H]1[C@@H]2CC3C[C@H]1C[C@@](O)(C3)C2	NLRP3 inflammasome (mouse)	–	mouse BMDM	10 µM	–	inhibition	31.1%
CCCc1cc(C)[nH]c(=O)c1CNC(=O)c1cc(-c2ccc(N3CCN(C(C)C)CC3)nc2)cc2c1cnn2C(C)C	panel of 50 kinases	enzyme activity, inhibitor	–	10000 nM	–	inhibition	≤ 20%
CCN(CC)CCNC(=O)c1c(C)[nH]c(/C=C2\C(=O)Nc3ccc(F)cc32)c1C	MAPK1 (human)	kinase activity, inhibitor	–	0.3 µM	–	inhibition	-1%
C#CCNC(=N)NCCCSC[C@H]1O[C@@H](n2cnc3c(NCCCc4ccccc4)ncnc32)[C@H](O)[C@@H]1O	CamA DNA adenine methyltransferase (Clostridioides difficile)	enzyme activity, inhibitor, MTase-Glo luminescence (SAH)	–	10 µM, 3 min, pH 7.5, 22 °C, added: SAM 40 µM	–	inhibition	< 10%
Cc1ccc(Nc2nccc(N(C)c3ccc4c(C)n(C)nc4c3)n2)cc1S(N)(=O)=O	MAPK1 (human)	kinase activity, inhibitor	–	10 µM	–	inhibition	-3%
COc1ccc(-c2nc(N3CCOCC3)c3sc(CN(C)c4ncc(C(=O)NO)cn4)cc3n2)cn1	NLRP3 inflammasome (mouse)	–	mouse BMDM	10 µM	–	inhibition	12.9%
N#Cc1ccc(COc2cccc(C3CCN(Cc4nc5ccc(C(=O)O)cc5n4C[C@@H]4CCO4)CC3)n2)c(F)c1	chloride channel	–	–	10 µM	–	inhibition	80%
CCCCCCCC(=O)O	–	binding, equilibrium dialysis LC-MS	–	5 µM, thermostabilized A2AR-BRIL construct	relative to: no-protein control, direction not given	z-scored log2 fold change	0.157
CCCCNC(=N)NCCCSC[C@H]1O[C@@H](n2cnc3c(NCCCc4ccccc4)ncnc32)[C@H](O)[C@@H]1O	CamA DNA adenine methyltransferase (Clostridioides difficile)	enzyme activity, inhibitor, MTase-Glo luminescence (SAH)	–	10 µM, 3 min, pH 7.5, 22 °C, added: SAM 40 µM	–	inhibition	< 10%
CN1CCN(c2ccc(C(=O)Nc3n[nH]c4ccc(Cc5cc(F)cc(F)c5)cc34)c(NC3CCOCC3)c2)CC1	NLRP3 inflammasome (mouse)	–	mouse BMDM	10 µM	–	inhibition	95.2%
N=C(NCCCSC[C@H]1O[C@@H](n2cnc3c(NCCCc4ccccc4)ncnc32)[C@H](O)[C@@H]1O)NC1CCCC1	CamA DNA adenine methyltransferase (Clostridioides difficile)	enzyme activity, inhibitor, MTase-Glo luminescence (SAH)	–	10 µM, 3 min, pH 7.5, 22 °C, added: SAM 40 µM	–	inhibition	< 10%
CCC(C)C(=O)C(=O)O (centres unmarked)	–	binding, equilibrium dialysis LC-MS	–	5 µM, thermostabilized A2AR-BRIL construct	relative to: no-protein control, direction not given	z-scored log2 fold change	-0.0335
Cc1cc(F)cc2c(CCC(=O)N[C@@H]3C(=O)NC[C@H]3O)c(-c3ccc(F)cc3)[nH]c12	L-type calcium channel, benzothiazepine site	binding	–	10 µM	–	inhibition	-15%
N=C(NCCCSC[C@H]1O[C@@H](n2cnc3c(NCCCc4ccccc4)ncnc32)[C@H](O)[C@@H]1O)NC1CCCCC1	CamA DNA adenine methyltransferase (Clostridioides difficile)	enzyme activity, inhibitor, MTase-Glo luminescence (SAH)	–	10 µM, 3 min, pH 7.5, 22 °C, added: SAM 40 µM	–	inhibition	< 10%

Some of these lines once more:
SMILES	tested on	assay	test system	setting	how to read	quantity	value
NC(=O)c1cnc2[nH]ccc2c1N[C@@H]1[C@@H]2CC3C[C@H]1C[C@@](O)(C3)C2	NLRP3 inflammasome (mouse)	–	mouse BMDM	10 µM	–	inhibition	31.1%
